Results gathered from unrelated publications.
Numbered parts are unrelated; each lists some results of a single study. Substitutions count along the parent as printed.

Series 1 — target: MAFF, bZIP domain (human); method: DHFR protein complementation; sample: yeast; reference: wild-type JUN-FOS pair; reading: higher = stronger binding; measurement: binding fitness
Notes: single substitutions, most at no-binding floor
Parent: JUN, bZIP domain (human); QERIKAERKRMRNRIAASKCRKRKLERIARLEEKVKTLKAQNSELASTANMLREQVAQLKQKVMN; partner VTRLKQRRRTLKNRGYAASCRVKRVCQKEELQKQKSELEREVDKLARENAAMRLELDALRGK
E54P: -1.46 natural log
E32G: -1.48 natural log
V56A: -1.5 natural log
L52K: -1.47 natural log
R30C: -1.42 natural log
L38C: -1.41 natural log
E44W: -1.46 natural log
A46Y: -1.44 natural log

Series 2 — effect on: peptide-MHC binding; form: peptide; concentration: concentration not given; measurement: binding
Target: HLA class I histocompatibility antigen, A alpha chain, allele A*25:01 (Homo sapiens, UniProt P04439)
YWDQVTFFY: inactive
QCFSVVLRY: inactive
TEDDWITYI: inactive
PLFKRGWRL: inactive
KKNHWFILK: inactive

Series 3 — target: UBE2W UBC core domain (UniProt Q96B02); method: yeast two-hybrid; sample: yeast; notes: mostly zero background; reference: not given; reading: higher = stronger interaction; measurement: lacZ reporter activity
B1: RNF24 RING domain (UniProt Q9Y225); chain KVKELNLHELCAVCLEDFKPRDELGICPCKHAFHRKCLIKWLEVRKVCPLCNMPVLQLAQLH
B2: RNF135 RING domain (UniProt Q8IUD6); chain PVWLAEDDLGCIICQGLLDWPATLPCGHSFCRHCLEALWGARDARRWACPTCRQGAAQQPHLR
B3: TRIM48 RING domain (UniProt Q8IWZ4); chain ISQVFQRELTCPICMNYFIDPVTIDCGHSFCRPCFYLNWQDIPILTQCFECIKTIQQRNLKT
Residues (chain): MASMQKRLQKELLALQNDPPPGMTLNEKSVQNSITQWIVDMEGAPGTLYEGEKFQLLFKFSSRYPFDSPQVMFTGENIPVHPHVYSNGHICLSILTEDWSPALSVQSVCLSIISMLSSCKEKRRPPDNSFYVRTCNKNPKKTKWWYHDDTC
B1 (RNF24 RING domain): 0
B2 (RNF135 RING domain): 0
MDDQGCPRCKTTKYRNPSLKLMVNVCGHTLCESCVDLLFVRGAGNCPECGTPLRKSNFRV (MNAT1 RING domain (UniProt P51948)): 0
B3 (TRIM48 RING domain): 0

Series 4 — method: protein-binding microarray; form: double-stranded DNA, one strand shown; sample: in vitro; concentration: 0.8 µM; notes: whole 60-bp probe, no competitor; reading: higher = stronger binding; measurement: fluorescence intensity
Target: Centromere-binding protein 1, full length, N-terminal tag (CBF1, Saccharomyces cerevisiae, UniProt P17106, residues 1-351)
Sequence of UniProt P17106 (whole entry, looked up): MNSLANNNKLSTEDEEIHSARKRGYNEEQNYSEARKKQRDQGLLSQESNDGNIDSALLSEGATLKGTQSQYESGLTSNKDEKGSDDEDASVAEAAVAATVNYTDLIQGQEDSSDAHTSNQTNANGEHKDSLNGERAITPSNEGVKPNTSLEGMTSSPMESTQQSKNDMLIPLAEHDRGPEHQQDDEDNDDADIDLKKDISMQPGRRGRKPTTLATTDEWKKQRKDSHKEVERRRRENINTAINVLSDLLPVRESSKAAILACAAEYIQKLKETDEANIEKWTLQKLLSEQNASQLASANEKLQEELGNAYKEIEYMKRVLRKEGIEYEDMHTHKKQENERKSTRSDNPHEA
CTAAAATATGTATTAATGGTGGTGCCTGTCAGGTTCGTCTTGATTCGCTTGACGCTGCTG: 498 a.u.
GAATTAATTGCCCACCACCTTCTTAAAACTGTTTAGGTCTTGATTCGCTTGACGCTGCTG: 533 a.u.
CTAAAAAGAAACAAGCACGCGCAAGAAAACCGCTTCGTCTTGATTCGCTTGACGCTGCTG: 992 a.u.
CCTAACTACTATATTTACGTGACATAGCTTCGTACAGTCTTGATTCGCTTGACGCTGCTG: 631 a.u.
GAATCGTAAGTTGTGCGCGTGCACATTTCGCCCTAGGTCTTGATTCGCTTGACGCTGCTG: 1280 a.u.
GAAGACATGTTGTTCGTGATGATCTTTCTTCCTTAGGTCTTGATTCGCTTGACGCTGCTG: 538 a.u.
GAATTCCATCGATGCCATGTGACCTGGTGAATCTAGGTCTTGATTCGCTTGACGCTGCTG: 6110 a.u.
GAACTATAATATTGTTGCGTGACAGCAAGTCTTTAGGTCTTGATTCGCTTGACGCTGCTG: 763 a.u.

Series 5 — target: CCNB2, cyclin fold, Cln2 fusion (human); method: yeast growth competition, sequencing; sample: yeast; notes: strong parent motif; reference: not given; reading: higher = stronger binding; measurement: normalised enrichment score; parent: viral docking peptide; TSVRRALFTGGSD
TSVRRALFTGGFD [S12F]: 0.561
TSVRTALFTGGSD [R5T]: -0.0611
TSVRRALFTGGGD [S12G]: 0.259
TSVRRALFIGGSD [T9I]: 0.573
TSVRPALFTGGSD [R5P]: -0.934
TSVRRALFTYGSD [G10Y]: 0.813
TSVRKALFTGGSD [R5K]: 0.782
TSVRRALFTGWSD [G11W]: 0.812
TSSRRALFTGGSD [V3S]: 0.0605
TSVRRAEFTGGSD [L7E]: 0.15
TSVRRASFTGGSD [L7S]: -0.43
TSVRCALFTGGSD [R5C]: 0.183
TSVQRALFTGGSD [R4Q]: 0.168
TSVRRAHFTGGSD [L7H]: 0.0919
TSVRRARFTGGSD [L7R]: 0.622
TSVRRALSTGGSD [F8S]: 0.56
TSVRRALFTEGSD [G10E]: 1.91
TSVRRAIFTGGSD [L7I]: 0.201
TSVHRALFTGGSD [R4H]: -0.187
TSVRRALFTGFSD [G11F]: 0.838
TSVRWALFTGGSD [R5W]: 0.329
TSCRRALFTGGSD [V3C]: 1.04
TSVRRTLFTGGSD [A6T]: 0.973
TSVCRALFTGGSD [R4C]: 0.0792
TSVRRALTTGGSD [F8T]: -0.177

Further values, each from its own experiment
LAMP5 (Homo sapiens, UniProt Q9UJQ1) — cross-linked residues (TCAF1 (Homo sapiens, UniProt Q9Y4C2); cross-linking MS; cells; with: BSPNO): M1 to K140
